{"data": "Results collected from several papers", "note": "Lines come from different studies, so protocols differ. ± marks the error that the study gave."}
{"Compound": "COc1ccc(CNc2nc(N3CCC[C@H]3CO)ncc2C(=O)NNC(=O)c2cnc(N3CCC[C@H]3CO)nc2NCc2ccc(OC)c(Cl)c2)cc1Cl", "target or system": "Salmonella typhimurium", "system": "TA97a", "conditions": "1000 µg/plate, 48 h, together with: rat liver S9", "endpoint": "revertant count", "result": "38 ± 7"}
{"Compound": "C[C@@](O)(C(F)F)[C@H](NC(=O)c1ccc(C#CC#CC2CC2)cc1)C(=O)NO", "system": "CD-1 mouse", "conditions": "oral, 40 mg/kg, not fasted", "endpoint": "CL/F", "result": "138 ± 80 mL/min/kg"}
{"Compound": "O=C(O)CCC(NP(=O)(O)OCCC[C@@H](NC(=O)CCC(NC(=O)c1ccc([18F])cc1)C(=O)O)C(=O)O)C(=O)O (some centres unmarked)", "target or system": "CWR22Rv1 tumour model", "system": "host not given, kidney", "conditions": "intravenous, 1 h, tumour-bearing", "endpoint": "tracer uptake", "result": "8.94 %ID/g"}
{"Compound": "COc1cc(C(=O)NCCOCCOCCOCCNC(=O)c2ccc([18F])nc2)ccc1NC(=O)C1NC(CC(C)(C)C)C(C#N)(c2ccc(Cl)cc2F)C1c1cccc(Cl)c1F (centres unmarked)", "target or system": "SJSA-1 tumour model", "system": "host not given, bone", "conditions": "1 h, tumour-bearing", "endpoint": "tracer uptake", "result": "0.61 %ID/g"}
{"Compound": "CC[C@H](C)C(=O)N1CCC(NC(=O)Nc2ccc(OC(F)(F)F)c(F)c2)CC1", "system": "human, plasma", "conditions": "oral, 16 mg, single dose, healthy volunteers", "endpoint": "Vd/F", "result": "146 L"}
{"Compound": "CCC(=O)N(C)c1ccc(Cl)c(Cl)c1", "target or system": "Salmonella typhimurium", "assay": "Ames test", "system": "TA100", "conditions": "5.00 mg/plate, without S9", "endpoint": "revertant colonies", "result": "0 revertants/plate"}
{"Compound": "CN[C@](C)(C[18F])C(=O)O", "target or system": "MDA-MB-468 tumour model", "system": "host not given, lung", "conditions": "30 min, tumour-bearing", "endpoint": "tracer uptake", "result": "2.3 %ID/g"}
{"Compound": "O=C(O)CCC(NP(=O)(O)OCCC[C@@H](NC(=O)CCC(NC(=O)CCCCCNC(=O)CCCCCNC(=O)c1ccc([18F])cc1)C(=O)O)C(=O)O)C(=O)O (some centres unmarked)", "target or system": "PC-3 tumour model", "system": "host not given, spleen", "conditions": "intravenous, 2 h, tumour-bearing", "endpoint": "tracer uptake", "result": "0.14 %ID/g"}
{"Compound": "CN(C)CC1CCCCC1(O)c1cccc(O)c1 (centres unmarked)", "system": "Caco-2", "conditions": "50 µM, 3 h, pH 6.8", "endpoint": "Papp B→A", "result": "13.7 ×10⁻⁶ cm/s"}
{"Compound": "O=C(O)CCC(NP(=O)(O)OCCC[C@@H](NC(=O)CCC(NC(=O)CCCCCNC(=O)c1ccc([18F])cc1)C(=O)O)C(=O)O)C(=O)O (some centres unmarked)", "target or system": "PC-3 tumour model", "system": "host not given, blood", "conditions": "intravenous, 2 h, tumour-bearing", "endpoint": "tracer uptake", "result": "0.05 %ID/g"}
{"Compound": "COc1ccc(CNc2nc(N3CCC[C@H]3CO)ncc2C(=O)NN)cc1Cl", "target or system": "Salmonella typhimurium", "system": "TA102", "conditions": "250 µg/plate, together with: rat liver S9", "endpoint": "revertant count", "result": "223 ± 12"}
{"note": "A few entries again:"}
{"Compound": "CCC(=O)N(C)c1ccc(Cl)c(Cl)c1", "target or system": "Salmonella typhimurium", "assay": "Ames test", "system": "TA100", "conditions": "5.00 mg/plate, without S9", "endpoint": "revertant colonies", "result": "0 revertants/plate"}
